Measurements pooled from the literature.
Protocols differ between the studies behind these lines. Numbers after ± are the reported error.
lacI D149C: lacI (Escherichia coli, UniProt P03023, D149C)
UniProt P03023, sequence (whole entry, unmodified, looked up): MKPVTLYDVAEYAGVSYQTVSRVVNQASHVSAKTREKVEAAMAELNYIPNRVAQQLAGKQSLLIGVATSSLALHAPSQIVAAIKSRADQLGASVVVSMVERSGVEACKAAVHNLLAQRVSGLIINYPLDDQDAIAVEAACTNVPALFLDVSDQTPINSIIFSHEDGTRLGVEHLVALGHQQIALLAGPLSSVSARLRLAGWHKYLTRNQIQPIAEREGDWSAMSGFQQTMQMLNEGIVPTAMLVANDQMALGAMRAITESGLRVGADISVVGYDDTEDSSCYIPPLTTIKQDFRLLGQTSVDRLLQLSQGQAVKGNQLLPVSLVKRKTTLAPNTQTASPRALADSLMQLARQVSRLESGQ
UniProt Q14831, sequence (whole entry, looked up): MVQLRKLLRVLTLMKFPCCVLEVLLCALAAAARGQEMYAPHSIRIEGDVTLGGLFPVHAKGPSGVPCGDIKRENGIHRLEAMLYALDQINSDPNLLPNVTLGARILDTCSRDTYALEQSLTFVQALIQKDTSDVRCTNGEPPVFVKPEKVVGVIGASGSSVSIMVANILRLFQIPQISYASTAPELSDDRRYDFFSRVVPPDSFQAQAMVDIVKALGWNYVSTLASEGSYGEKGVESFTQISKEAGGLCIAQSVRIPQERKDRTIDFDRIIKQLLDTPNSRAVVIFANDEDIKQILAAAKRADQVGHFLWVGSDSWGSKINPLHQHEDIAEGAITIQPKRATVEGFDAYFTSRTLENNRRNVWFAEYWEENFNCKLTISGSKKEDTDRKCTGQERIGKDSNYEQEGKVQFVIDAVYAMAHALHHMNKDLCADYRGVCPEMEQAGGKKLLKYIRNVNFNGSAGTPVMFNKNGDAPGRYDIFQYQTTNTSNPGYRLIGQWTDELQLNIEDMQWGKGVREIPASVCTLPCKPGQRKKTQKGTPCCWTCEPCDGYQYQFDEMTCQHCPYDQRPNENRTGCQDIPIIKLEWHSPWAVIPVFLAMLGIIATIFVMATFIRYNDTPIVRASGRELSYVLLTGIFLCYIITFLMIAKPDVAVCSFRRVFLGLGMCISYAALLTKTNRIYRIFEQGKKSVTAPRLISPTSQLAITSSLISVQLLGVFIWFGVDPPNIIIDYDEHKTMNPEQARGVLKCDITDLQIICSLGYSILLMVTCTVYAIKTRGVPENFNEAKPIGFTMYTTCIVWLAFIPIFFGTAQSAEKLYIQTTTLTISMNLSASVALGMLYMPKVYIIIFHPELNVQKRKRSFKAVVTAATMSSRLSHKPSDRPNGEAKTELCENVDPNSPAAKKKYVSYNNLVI
UniProt O60603, sequence (whole entry, looked up): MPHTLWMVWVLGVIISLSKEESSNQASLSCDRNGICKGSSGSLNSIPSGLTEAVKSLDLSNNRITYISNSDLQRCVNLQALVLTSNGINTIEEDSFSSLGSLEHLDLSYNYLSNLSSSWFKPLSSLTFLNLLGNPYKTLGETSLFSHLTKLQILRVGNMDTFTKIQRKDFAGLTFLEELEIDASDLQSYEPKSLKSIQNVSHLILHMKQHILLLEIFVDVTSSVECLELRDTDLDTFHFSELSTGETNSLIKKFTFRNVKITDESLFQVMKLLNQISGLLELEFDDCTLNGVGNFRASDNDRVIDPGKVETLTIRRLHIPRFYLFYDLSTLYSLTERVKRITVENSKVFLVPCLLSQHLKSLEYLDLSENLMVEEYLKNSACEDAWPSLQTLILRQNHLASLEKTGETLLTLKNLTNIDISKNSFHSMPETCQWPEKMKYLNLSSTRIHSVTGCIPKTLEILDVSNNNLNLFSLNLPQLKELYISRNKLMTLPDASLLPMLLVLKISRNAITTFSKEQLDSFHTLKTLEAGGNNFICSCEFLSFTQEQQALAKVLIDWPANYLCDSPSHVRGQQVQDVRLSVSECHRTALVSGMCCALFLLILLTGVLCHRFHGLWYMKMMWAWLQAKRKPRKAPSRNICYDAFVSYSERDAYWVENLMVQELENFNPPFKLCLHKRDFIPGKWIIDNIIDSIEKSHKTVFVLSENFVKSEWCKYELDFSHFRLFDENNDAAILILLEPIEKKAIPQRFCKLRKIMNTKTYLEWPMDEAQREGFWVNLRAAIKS
UniProt Q8IZD6, sequence (whole entry, looked up): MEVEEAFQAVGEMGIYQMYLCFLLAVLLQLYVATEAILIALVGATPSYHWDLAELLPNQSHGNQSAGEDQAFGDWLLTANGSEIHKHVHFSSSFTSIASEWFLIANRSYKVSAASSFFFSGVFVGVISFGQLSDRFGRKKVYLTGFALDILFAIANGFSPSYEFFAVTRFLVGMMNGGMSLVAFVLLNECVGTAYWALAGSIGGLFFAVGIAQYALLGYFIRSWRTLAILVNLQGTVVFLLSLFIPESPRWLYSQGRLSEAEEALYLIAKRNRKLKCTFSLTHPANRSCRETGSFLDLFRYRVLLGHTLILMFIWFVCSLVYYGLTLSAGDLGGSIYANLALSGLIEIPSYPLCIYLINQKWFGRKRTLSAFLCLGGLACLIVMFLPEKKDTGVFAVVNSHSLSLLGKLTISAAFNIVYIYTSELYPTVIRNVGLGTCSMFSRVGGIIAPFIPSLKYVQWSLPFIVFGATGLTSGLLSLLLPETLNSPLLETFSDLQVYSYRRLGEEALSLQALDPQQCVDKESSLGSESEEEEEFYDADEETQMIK
UniProt O15303, sequence (whole entry, looked up): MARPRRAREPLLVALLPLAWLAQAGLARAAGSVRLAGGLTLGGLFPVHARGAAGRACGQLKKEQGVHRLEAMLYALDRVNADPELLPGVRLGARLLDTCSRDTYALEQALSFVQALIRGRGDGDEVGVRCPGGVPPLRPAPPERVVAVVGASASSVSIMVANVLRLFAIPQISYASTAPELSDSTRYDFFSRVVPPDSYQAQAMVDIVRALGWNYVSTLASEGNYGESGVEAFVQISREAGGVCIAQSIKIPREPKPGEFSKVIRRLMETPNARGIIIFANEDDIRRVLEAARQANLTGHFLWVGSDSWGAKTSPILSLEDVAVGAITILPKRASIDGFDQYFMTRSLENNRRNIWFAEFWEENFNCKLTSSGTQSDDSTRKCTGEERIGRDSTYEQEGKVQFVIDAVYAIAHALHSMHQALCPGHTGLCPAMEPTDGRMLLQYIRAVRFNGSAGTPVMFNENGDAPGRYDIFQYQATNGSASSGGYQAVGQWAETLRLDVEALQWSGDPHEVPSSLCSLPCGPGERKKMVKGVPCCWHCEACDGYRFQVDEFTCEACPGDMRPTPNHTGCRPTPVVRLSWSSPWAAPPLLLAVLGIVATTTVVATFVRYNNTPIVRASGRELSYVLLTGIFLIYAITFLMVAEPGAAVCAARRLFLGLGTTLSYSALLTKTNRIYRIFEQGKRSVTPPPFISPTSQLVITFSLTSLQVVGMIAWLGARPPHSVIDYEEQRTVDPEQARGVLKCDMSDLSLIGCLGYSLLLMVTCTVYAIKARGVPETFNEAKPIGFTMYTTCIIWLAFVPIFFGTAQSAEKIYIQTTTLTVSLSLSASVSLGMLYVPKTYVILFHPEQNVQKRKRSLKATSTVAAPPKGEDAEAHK
UniProt P29276, sequence (whole entry, looked up): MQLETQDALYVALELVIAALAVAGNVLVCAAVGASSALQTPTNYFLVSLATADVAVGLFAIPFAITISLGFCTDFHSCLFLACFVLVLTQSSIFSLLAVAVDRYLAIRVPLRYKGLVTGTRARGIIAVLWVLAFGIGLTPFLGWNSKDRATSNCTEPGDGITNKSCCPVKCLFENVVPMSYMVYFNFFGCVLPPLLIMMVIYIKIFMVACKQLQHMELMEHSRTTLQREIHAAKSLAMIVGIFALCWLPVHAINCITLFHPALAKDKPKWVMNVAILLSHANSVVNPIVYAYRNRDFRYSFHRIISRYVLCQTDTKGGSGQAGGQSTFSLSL
UniProt P17812, sequence (whole entry, looked up): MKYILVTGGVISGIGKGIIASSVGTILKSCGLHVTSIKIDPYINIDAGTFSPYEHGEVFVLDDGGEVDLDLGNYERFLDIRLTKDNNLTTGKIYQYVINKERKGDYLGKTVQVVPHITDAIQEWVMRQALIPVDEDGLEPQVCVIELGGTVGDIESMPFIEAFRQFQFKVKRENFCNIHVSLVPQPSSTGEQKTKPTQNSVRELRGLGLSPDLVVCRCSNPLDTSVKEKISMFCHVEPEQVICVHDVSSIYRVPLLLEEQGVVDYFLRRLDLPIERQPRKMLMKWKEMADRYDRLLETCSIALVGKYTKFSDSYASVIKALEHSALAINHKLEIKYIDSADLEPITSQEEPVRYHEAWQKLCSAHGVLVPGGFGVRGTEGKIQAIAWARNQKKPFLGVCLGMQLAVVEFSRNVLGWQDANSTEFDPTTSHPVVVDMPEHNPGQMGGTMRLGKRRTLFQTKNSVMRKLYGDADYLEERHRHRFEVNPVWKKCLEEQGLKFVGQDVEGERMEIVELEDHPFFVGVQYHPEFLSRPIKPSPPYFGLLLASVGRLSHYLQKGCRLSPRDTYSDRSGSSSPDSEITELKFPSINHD
UniProt P28222, sequence (whole entry, looked up): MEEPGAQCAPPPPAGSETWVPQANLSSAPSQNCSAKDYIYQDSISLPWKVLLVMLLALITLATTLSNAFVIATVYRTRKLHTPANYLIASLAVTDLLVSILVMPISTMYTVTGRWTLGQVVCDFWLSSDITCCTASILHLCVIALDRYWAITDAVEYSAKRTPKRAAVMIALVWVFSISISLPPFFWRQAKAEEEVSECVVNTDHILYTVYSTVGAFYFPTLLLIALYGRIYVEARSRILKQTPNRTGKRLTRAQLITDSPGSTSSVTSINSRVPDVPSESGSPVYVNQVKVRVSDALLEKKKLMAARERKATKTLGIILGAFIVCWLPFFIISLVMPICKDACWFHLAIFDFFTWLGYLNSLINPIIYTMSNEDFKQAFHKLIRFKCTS

SMILES | tested on | test | system | conditions | how to read | endpoint | result
CCCCCCCCCCCCCC(=O)O[C@@H]1[C@@H](C)[C@@]2(O)[C@@H](C=C(CO)C[C@]3(O)C(=O)C(C)=C[C@@H]23)[C@@H]2C(C)(C)[C@]12OC(C)=O | Adenosine receptor A2b (Adora2b, Rattus norvegicus, UniProt P29276) | cAMP accumulation, agonist | H9c2 | 5 min |  | EC50 | 0.12 ± 0.036 µM
C[C@H]1O[C@@H](Oc2ccccc2[N+](=O)[O-])[C@H](O)[C@@H](O)[C@H]1O | lacI D149C | operator DNA binding, nitrocellulose filter binding |  | with: O1 operator DNA |  | EC50 | 30 ± 2 µM
COc1cc(Nc2ncc(F)c(Nc3ccc4c(n3)NC(=O)C(C)(C)O4)n2)cc(OC)c1OC | Dual specificity protein phosphatase 6 (Homo sapiens, UniProt Q16828) | enzyme activity, inhibitor |  |  |  | IC50 | > 10 µM
OC[C@H]1O[C@@H](OCCc2ccccc2)[C@H](O)[C@@H](O)[C@H]1O | lacI D149C | operator DNA release, nitrocellulose filter binding |  | with: O1 operator DNA |  | EC50 | > 1000 µM
c1ccc(C(NCCNC(c2ccccc2)c2ccccc2)c2ccccc2)cc1 | Metabotropic glutamate receptor 7 (GRM7, Homo sapiens, UniProt Q14831) | agonist, CellKey impedance | CHO cells expressing mGluR7 |  |  | EC50 | 0.868 µM
CC(C)C[C@H](NC(=O)[C@H](Cc1ccccc1)NC(=O)[C@H](Cc1ccc(O)cc1)NC(=O)CNC(=O)[C@H](CCCCN)NC(=O)[C@H](CO)NC(=O)[C@H](CCC(N)=O)NC(=O)CNC(=O)[C@@H](NC(=O)[C@H](CO)NC(=O)[C@@H]1CCCN1C(=O)[C@H](CO)NC(=O)[C@H](CCC(N)=O)NC(=O)[C@H](Cc1ccc(O)cc1)NC(=O)[C@H](CCC(=O)O)NC(=O)[C@H](C)NC(=O)[C@H](CCCCN)NC(=O)[C@@H](N)Cc1ccccc1)C(C)C)C(=O)N[C@@H](Cc1ccccc1)C(=O)N[C@@H](CCCNC(=N)N)C(=O)N1CCC[C@H]1C(=O)N[C@@H](CCCNC(=N)N)C(=O)N[C@@H](CC(N)=O)C(N)=O | Neuromedin-U receptor 2 (Mus musculus, UniProt Q8BZ39) | IP-1 accumulation, agonist, IP-1 |  | mean of independent runs |  | EC50 | 0.00079 µM
COc1ccc(N2C(=O)N(c3c(C)cccc3Cl)Cc3cnc(Nc4ccc(C5CCN(C)CC5)cc4OC)nc32)nc1 | Calcium/calmodulin-dependent protein kinase type II subunit delta (CAMK2D, Homo sapiens, UniProt Q13557) | kinase activity |  | 0.5 µM |  | inhibition | 4%
N[C@@H](CCP(=O)(O)O)C(=O)O | Metabotropic glutamate receptor 6 (Homo sapiens, UniProt O15303) | IP accumulation, agonist, HTRF | cells expressing chimeric Gq/i receptor | dark |  | EC50 | 1.38 µM
COc1ccc2[nH]cc(C3=CCNCC3)c2c1 | 5-hydroxytryptamine receptor 1B (HTR1B, Homo sapiens, UniProt P28222) | receptor function, agonist | cells |  |  | EC50 | 0.0098 µM
CC[C@H](C)[C@@H]1NC(=O)[C@@H]2CCCN2C(=O)[C@H](CC(C)C)NC(=O)[C@H](CC(C)C)NC(=O)CNC(=O)[C@@H](NC(=O)[C@@H](NC(=O)[C@H](CC(=O)O)NC(=O)CNC(=O)[C@@H](NC(=O)[C@H](C)NC(=O)CNC(=O)[C@H](CCCCN)NC(=O)[C@H](CC(C)C)NC(=O)[C@H](CC(C)C)NC(=O)[C@H](CCCCN)NC(=O)CNC(=O)[C@@H](NC(=O)[C@@H](N)CC(C)C)C(C)C)C(C)C)C(C)C)CSSC[C@@H](C(=O)O)NC1=O |  | RNA-seq, refers to: Ier2 | mouse, traumatic brain injury model, frontal cortex and hippocampus | dose not given | baseline: TBI alone | log2 fold change | -1.5
COc1cc(C(=O)N2CC[C@@H](O)[C@@H](N)C2)cc2nc(-c3cc4ccccc4n3CC3CC3)n(C)c12 | Beta-2 adrenergic receptor (ADRB2, Homo sapiens, UniProt P07550) | agonist, TR-FRET |  |  |  | EC50 | > 31.6 µM
C[n+]1ccc(-c2ccccc2)cc1 | Solute carrier family 22 member 15 (SLC22A15, Homo sapiens, UniProt Q8IZD6) | creatine efflux, activator, LC-MS/MS | human cells, HBSS | 30 min, 37 °C, with: 1 mM and 10 mM creatine, butyrate, sodium |  | EC50 | 300 µM
CCCCCCCCCCCCCCCC(=O)OCC(CSCC(N)C(=O)NC(CO)C(=O)NCCCN(C)C)OC(=O)CCCCCCCCCCCCCCC (stereo not drawn) | TLR2/TLR6 (Homo sapiens, UniProt O60603+Q9Y2C9) | reporter gene, agonist | HEK-Blue hTLR2/6 cells |  |  | EC50 | 0.00031 ± 0.000308 µM
CCCCCCCC/C=C\CCCCCCCC(=O)NCc1ccc(O)c(OC)c1 | Transient receptor potential cation channel subfamily V member 1 (TRPV1, Homo sapiens, UniProt Q8NER1) | K+ efflux, agonist, BRET | HEK293T |  |  | EC50 | 0.11 µM
C[C@H]1CN(c2n[nH]c3nc(N[C@H]4CC[C@H](NS(=O)(=O)CCC(F)(F)F)CC4)ncc23)CCO1 | CTP synthase 1 (Homo sapiens, UniProt P17812) | Kinobeads competition, refers to: CTPS |  | 0.16 µM, unit not given | baseline: vehicle | remaining binding | 1.06
COc1cc2c(Oc3ccc4[nH]c(C)cc4c3F)ccnc2cc1OCC1(N)CC1 |  |  | paediatric recurrent refractory sarcoma | 8 mg/kg |  | grade 3 Hyperthyroidism | 0%
CO[C@H]1C[C@@H]2CC[C@@H](C)[C@@](O)(O2)C(=O)C(=O)N2CCCC[C@H]2C(=O)O[C@H]([C@H](C)C[C@@H]2CC[C@@H](OC(=O)NCCOCCOCCOCCOCCOCCOCCOCCOCCC(=O)N3CCc4cc(Cn5nc(-c6ccc7oc(N)nc7c6)c6c(N)ncnc65)ccc4C3)[C@H](OC)C2)C[C@@H](O)[C@H](C)/C=C(\C)[C@@H](O)[C@@H](OC)C(=O)[C@H](C)C[C@H](C)/C=C/C=C/C=C/1C |  |  | patients with advanced solid tumours | intravenous, 8 mg weekly, any grade |  | dysgeusia incidence | 6.3%
C[C@@]1(O)CC[C@@]2(C)[C@@H](CC[C@@H]3[C@@H]2CC[C@]2(C)[C@@H]([N+](=O)[O-])CC[C@@H]32)C1 | GABAA receptor (rat) | enhancement of [3H]flunitrazepam binding, positive modulator | rat cerebral cortex homogenate | with: GABA 1.0 µM |  | EC50 | 0.0335 ± 0.0049 µM
CC[C@H](C)[C@H](NC(=O)[C@H](Cc1ccccc1)NC(=O)[C@H](CCC(=O)O)NC(=O)[C@H](CCCNC(=N)N)NC(=O)[C@H](C)NC(=O)[C@H](C)NC(=O)[C@H](CCC(N)=O)NC(=O)[C@H](CCC(=O)O)NC(=O)[C@H](CCC(=O)O)NC(=O)[C@H](CC(C)C)NC(=O)[C@H](Cc1ccc(O)cc1)NC(=O)[C@H](CO)NC(=O)[C@H](CO)NC(=O)[C@@H](NC(=O)[C@H](CC(=O)O)NC(=O)[C@H](CO)NC(=O)[C@@H](NC(=O)[C@H](Cc1ccccc1)NC(=O)[C@@H](NC(=O)CNC(=O)[C@H](CCC(=O)O)NC(=O)[C@H](C)NC(=O)CCc1c[nH]cn1)[C@@H](C)O)[C@@H](C)O)C(C)C)C(=O)N[C@@H](C)C(=O)N[C@@H](Cc1c[nH]c2ccccc12)C(=O)N[C@@H](CC(C)C)C(=O)N[C@H](C(=O)N[C@@H](CCCNC(=N)N)C(=O)NCC(=O)N[C@@H](CCCNC(=N)N)C(=O)N[C@@H](CCCCNC(=O)COCCOCCNC(=O)COCCOCCNC(=O)CC[C@H](NC(=O)CCCCCCCCCCCCCCCCC(=O)O)C(=O)O)C(=O)NCC(=O)NCC(=O)N[C@@H](CO)C(=O)N[C@@H](CCCCNc1c(NCCCCCN(O)C(=O)CCC(=O)NCCCCCN(O)C(=O)CCC(=O)NCCCCCN(O)C(C)=O)c(=O)c1=O)C(=O)O)C(C)C [zirconium-89 labelled] |  |  | rat, colon | sc, 3 nmol/kg, 4 h, ex vivo |  | tissue uptake | 0.18 %ID/g
CO/N=C1\C[C@]2(C[C@@H]3C[C@@H](C/C=C(\C)C[C@@H](C)/C=C/C=C4\CO[C@@H]5[C@H](O)C(C)=C[C@@H](C(=O)O3)[C@]45O)O2)O[C@H](/C(C)=C/C(C)C)[C@H]1C | Nuclear receptor subfamily 1 group I member 2 (NR1I2, Homo sapiens, UniProt O75469) |  |  |  |  | EC50 | 6.21 ± 2.59 µM
C[C@]12CC[C@H](O)C[C@@H]1CC[C@@H]1[C@@H]2CC[C@]2(C)[C@@H]([N+](=O)[O-])CC[C@@H]12 | GABAA receptor (rat) | enhancement of [3H]flunitrazepam binding, positive modulator | rat cerebral cortex homogenate | with: GABA 1.0 µM |  | EC50 | > 10 µM
